Results gathered from unrelated publications.
Every numbered part comes from another study and shows a few of its results, in no order.

Sample 1
Target: Sal-like protein 4, full length isoform B (SALL4, Homo sapiens, UniProt Q9UJQ4-2, residues 1-616)
Technique: universal PBM
Molecule type: double-stranded DNA, one strand shown
Sample: in vitro
Concentration: not given
Notes: 8-mer, flanks averaged, mean of replicates
Reading: higher = stronger binding
| Oligonucleotide | E-score |
| --- | --- |
| CGCAGGCC | -0.332 |
| AACCTTTG | 0.0738 |
| GCATCCGC | -0.123 |
| TGTTGGAA | 0.131 |
| GGCCAATA | 0.151 |
| GGCCAAAC | -0.269 |
| CCTTTCGC | -0.0769 |

Sample 2
Target: Interferon regulatory factor 5, full length, phosphomimetic (IRF5, Homo sapiens, UniProt Q13568-2, residues 1-514, K96S/S451D/S453D/S456D/S462D)
Technique: protein-binding microarray
Molecule type: double-stranded DNA, one strand shown
Sample: in vitro
Concentration: 250 nM
Notes: 60-bp whole probe
With: salmon DNA 0.4 mg/ml
Baseline: random background probes
Reading: higher = stronger binding
All sequences stand within: GCCTAGCAC … GTCTTGATTCGCTTGACGCTGCTG
| Oligonucleotide | log fluorescence [z-score] |
| --- | --- |
| GACGATATCAGTTTAGAGACGTGCTAG | 1.66 |
| CACATTCTCTGCTTGGGTCTGTGCTAG | 0.269 |
| TCACATTTGATAAATCTTACTGTGCTA | 0.878 |
| TTAGGTCTACTTTTCCTTTAGTGCTAG | 0.445 |
| GACGATATCTGGACTGGAGACGTGCTA | 0.431 |
| TTTGTTTCCATTTTCTGAATGTGCTAG | 2.94 |
| TCACATTTATATCTTTGACTGTGCTAG | 0.898 |

Sample 3
Target: Histone acetyltransferase KAT6A, winged helix 1, GST fusion (KAT6A, Homo sapiens, UniProt Q92794, residues 1-85)
Technique: protein binding microarray
Molecule type: double-stranded DNA, one strand shown
Sample: in vitro
Concentration: not given
Notes: 8-mer, flanks averaged, mean of 2 arrays, mostly near background
Baseline: not given
Reading: higher = stronger binding
Target sequence (chain): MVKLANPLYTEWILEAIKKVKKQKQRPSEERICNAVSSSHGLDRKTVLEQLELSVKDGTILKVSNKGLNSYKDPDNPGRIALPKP
| Oligonucleotide | E-score |
| --- | --- |
| GAACTTGA | -0.0642 |
| ACCTTTCC | 0.00063 |
| CGCATGCC | 0.307 |
| GGTGAGAC | -0.161 |
| CGATGCCA | -0.103 |
| GAACTAGC | 0.0266 |
| AAACCGTC | 0.185 |

Further values, each from its own experiment
| Molecule | target | test | test system | setting | scale | quantity | result |
| --- | --- | --- | --- | --- | --- | --- | --- |
| PhoQ, residues 284 288 289 292 302 303 WVSSAF | PhoP, residues 12 14 15 18 19 SHWTV (Escherichia coli, UniProt P23836) | Sort-seq, measured: YFP reporter | E. coli | PhoQ-PhoP variant library, with: 10 µM Mg2+ | baseline: high Mg2+ state, higher = stronger signaling | fold induction | 13.1 |

For quick reference, copied from above (sample 2):
| Oligonucleotide | log fluorescence [z-score] |
| --- | --- |
| TTAGGTCTACTTTTCCTTTAGTGCTAG | 0.445 |
| GACGATATCTGGACTGGAGACGTGCTA | 0.431 |
| TTTGTTTCCATTTTCTGAATGTGCTAG | 2.94 |
